Published values of several laboratories.
Every numbered part comes from another study and shows a few of its results, in no order. Substitutions count along the parent as printed.

Series 1
Target: CREB3, bZIP domain (human)
Technique: DHFR protein complementation
Medium: yeast
Setting: single substitutions, most at no-binding floor
Reference: wild-type JUN-FOS pair
Direction: higher = stronger binding
Endpoint: binding fitness
Parent: JUN, bZIP domain (human); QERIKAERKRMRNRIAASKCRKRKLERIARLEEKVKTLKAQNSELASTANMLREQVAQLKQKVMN; partner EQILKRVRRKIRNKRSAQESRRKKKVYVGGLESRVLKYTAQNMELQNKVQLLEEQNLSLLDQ
Change = Q41E; value = -1.44 natural log
Change = N42Y; value = -1.46 natural log
Change = S47K; value = -1.45 natural log
Change = I28K; value = -1.46 natural log
Change = K34D; value = -1.41 natural log
Change = E32K; value = -1.43 natural log
Change = E54G; value = -1.52 natural log
Change = Q55Y; value = -1.47 natural log
Change = T37E; value = -1.29 natural log
Change = V56H; value = -1.46 natural log
Change = E44I; value = -1.37 natural log
Change = S43Q; value = -1.37 natural log
Change = N42R; value = -1.41 natural log
Change = T37R; value = -1.51 natural log
Change = A40I; value = -1.52 natural log
Change = R30E; value = -1.46 natural log
Change = N42S; value = -1.45 natural log
Change = M51F; value = -1.34 natural log
Change = L38P; value = -1.53 natural log
Change = M51Q; value = -1.47 natural log
Change = M51G; value = -1.48 natural log
Change = I28V; value = -1.44 natural log
Change = K34Q; value = -1.47 natural log
Change = A46C; value = -1.51 natural log
Change = N42E; value = -1.52 natural log

Series 2
Target: RNA binding protein fox-1 homolog 2, RRM domain, GST-SBP tag (RBFOX2, Homo sapiens, UniProt O43251-10, residues 100-194)
Technique: RNA Bind-n-Seq
Molecule type: RNA
Medium: in vitro
Concentration: 365 nM
Setting: natural RNA segment, single round, ends assumed
Reference: no-protein control
Direction: higher = stronger binding
Endpoint: RBNS enrichment (R)
Shared flanks, not repeated: GGGAGUUCUACAGUCCGACGAUC … UGGAAUUCUCGGGUGCCAA
Residues (chain): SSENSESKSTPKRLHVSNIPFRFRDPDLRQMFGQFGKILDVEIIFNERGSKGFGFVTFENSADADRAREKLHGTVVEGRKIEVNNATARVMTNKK
Oligonucleotide = AGAGCUGGGUCACCGGUGCCGAUGCUCUGGCCCUCCCCAAUACGCUGCUUCGUCCCACUGCACCGCCUGGCUGAGGGCGUUAGGGGCUGUGCCUCUUGUGAGGGCCAUUU; value = 0.392
Oligonucleotide = UAAUCUUGCUGCUUAUGUGCCAAUUUAGUGGAAAAAAACAACCCUUGCUGAAAAAUUCCCUCUUUCCAUUCUCUUUCAAUUCUGUGAUAUUGUCCAAGAAUGUAUCAAUA; value = 0.436
Oligonucleotide = GGUGAUUGUUCAGGUUGUAGAAUGCGCAUUUUACAUUGUUUAUGAUAAUUGAAGGGUACUUCUGUCUGCUCCAAUUUCCAUUCCUUGGUAUACUCAGUAUGUCCUAGUAA; value = 0.523
Oligonucleotide = UGUGAAGGGAUUUGUUUUGUCAAAAAAUUAAAAACUCAAUGUGUAUGACGCCACUCUGAAGAGUAGGUGAGCGCUUUGCAGUCACAGAAGGUGGCAUCUGACUGCGGCUC; value = 0.918
Oligonucleotide = UGCUCCUUAAAAAUGAAACAGGAGAAAGCCUGGCAUUGUAUACCUGUUUUUGUUGCUCAGUAAUUCAGGUGGAAAUAUAUAACGCAAGUGGGUAGAGCGUCUGCCAGACU; value = 0.59
Oligonucleotide = GGACCUGGUGCCCUGGGUGGUGGAGGGCUCAGCCCUCUUGAUUCAGUAGCUUCCCAAGCAGCUGCUCCUCUCAGGAGCCUGCUUAACACUUGCGCCAGCUCAGAGGCCUG; value = 0.26
Oligonucleotide = GAAAAAUACUGCAGAAGUUAAACCUGUGAUGUGUUUUUUUGAGCUGUUUUGUUUUAAGGUAACUACUGAAAUAAGUCUGGCUGUUUUUAUAUGCCAGAUACAGAGAAUUU; value = 0.647
Oligonucleotide = GGCCUCUCCUGGAACUCUGAACCUGCUGUGGAAGGAAUUGGCCAUGACCUUCACCUCUGGAGAGUAGGGUCUAUGGCGAGGGAAAAGGGUGUUCACCAUGAUAACCUAGU; value = 0.835
Oligonucleotide = GUCCAGCCGGUCCAAGCACAUGGCCUCCCAUCUGGGAGAGCCCACUGUCCCACUCCCACAUGUCUGGGCACCUGCCCUGGGCUGAGGCCAGGCUGCUCCAGGGGCCUCCU; value = 0.239
Oligonucleotide = UCAUUUGUACCCAGAAUGUAUUAAUAUAUUGCUAUUAGGUUAAUCUGUUAACUGAAUGCUUUGAUCAGCAUUGAGGUGAUGCUCACCUCCGAGGACCUCAGAACUGGUGC; value = 0.404
Oligonucleotide = UAUACACAUGAAUACUUAAAUGCCAACAUUUAAAAUAAUUUGAUAAAGUCUUUGUAGCCACUCAGCCCCUCUGGUGUUUGUGGUAUUGUUUUAAUGGGACAAGAGAUUAG; value = 0.681
Oligonucleotide = ACAAGAGCAGCCUGUGGCAUCUUUGCCUUGGGCUGCUCCUCAUGGUGGGUUCAGGGGACUCAGCCCUGAGGUGAAAGGGAGCUAUCAGGAACAGCUAUGGGAGCCCCAGG; value = 0.414

Series 3
Target: Histone acetyltransferase KAT6A, winged helix 2, GST fusion (KAT6A, Homo sapiens, UniProt Q92794, residues 85-181)
Technique: protein binding microarray
Molecule type: double-stranded DNA, one strand shown
Medium: in vitro
Concentration: not given
Setting: 8-mer, flanks averaged, mean of 2 arrays, mostly near background
Reference: not given
Direction: higher = stronger binding
Endpoint: E-score
Residues (chain): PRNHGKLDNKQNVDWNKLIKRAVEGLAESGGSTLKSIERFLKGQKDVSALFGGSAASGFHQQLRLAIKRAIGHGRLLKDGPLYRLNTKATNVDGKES
Oligonucleotide = GTGTAGGA; value = -0.163
Oligonucleotide = GCCATCCA; value = 0.0213
Oligonucleotide = CTACCGAG; value = 0.0329
Oligonucleotide = ATTGGGGC; value = -0.0704
Oligonucleotide = CGCCACAA; value = -0.00524
Oligonucleotide = AGTACGTG; value = -0.277
Oligonucleotide = AGTCAGGC; value = 0.00068
Oligonucleotide = AATTACTC; value = 0.0298
Oligonucleotide = AGAGTTAT; value = -0.127
Oligonucleotide = GCACTGGC; value = 0.115
Oligonucleotide = TAGGACCA; value = -0.0388
Oligonucleotide = CATTCGCG; value = 0.0691
Oligonucleotide = CCGAAACA; value = -0.0291
Oligonucleotide = TAGAGTAA; value = 0.00817
Oligonucleotide = TCCCCACA; value = -0.126
Oligonucleotide = CTCGTCAC; value = 0.142
Oligonucleotide = ATAGCGGG; value = 0.0976
Oligonucleotide = CCCTACCG; value = 0.00831
Oligonucleotide = TATCGCGA; value = 0.105
Oligonucleotide = GCGGTCGA; value = 0.149
Oligonucleotide = TCCGACAA; value = 0.0781
Oligonucleotide = GGCTATAC; value = -0.057
Oligonucleotide = ATTTAGGA; value = -0.116
Oligonucleotide = GCAGGCTA; value = 0.0119

Series 4
Target: Ras GTPase-activating protein-binding protein 1, RRM domain (G3BP1, Homo sapiens, UniProt Q13283)
Sequence of UniProt Q13283 (whole entry, looked up): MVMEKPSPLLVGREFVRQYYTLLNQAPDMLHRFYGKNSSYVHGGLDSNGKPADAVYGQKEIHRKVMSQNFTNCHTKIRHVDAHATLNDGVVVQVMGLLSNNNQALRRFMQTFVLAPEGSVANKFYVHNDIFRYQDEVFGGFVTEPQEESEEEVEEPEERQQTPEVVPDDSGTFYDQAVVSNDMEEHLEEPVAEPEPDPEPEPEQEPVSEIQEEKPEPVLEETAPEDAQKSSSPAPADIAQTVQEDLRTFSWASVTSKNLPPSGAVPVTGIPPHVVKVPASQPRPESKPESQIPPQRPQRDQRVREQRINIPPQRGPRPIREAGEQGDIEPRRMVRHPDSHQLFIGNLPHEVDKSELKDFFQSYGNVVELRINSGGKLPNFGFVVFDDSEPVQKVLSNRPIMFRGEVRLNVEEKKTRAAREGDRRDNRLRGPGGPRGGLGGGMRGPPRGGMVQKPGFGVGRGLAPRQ
Technique: RNA Bind-n-Seq
Molecule type: RNA
Medium: in vitro
Concentration: 1 µM
Setting: whole 134-nt RNA, ends assumed
With: 150 mM KCl
Reference: input library
Direction: higher = stronger binding
Endpoint: log2 enrichment
Shared flanks, not repeated: GGGAGUUCUACAGUCCGACGAUC … UGGAAUUCUCGGGUGUCAAGG
Oligonucleotide = AGUCCUGUGCUACACAUCGUAUGUACCGAAUCGGUUUUUGGAAAAAAAGGUUUUUGGAAAGUAUUAUGUUACGCCGUUCGGAUCUGCACU; value = -0.426
Oligonucleotide = ACCAUGCAGGUGGGCAUCAAAGGGAAGUGGGGCAAGGGGGGGAUAGGGAGGGGGGUAACACUUUGGGAACAGGUGGUCCCAGGUCGUUUC; value = -0.706
Oligonucleotide = CUGUGCUACACAUCGUAUGUACCGAAUCGGGGUUUUUGGGGAAAAAAAGGGGUUUUUGGGGAAAGUAUUAUGUUACGCCGUUCGGAUCUG; value = 1.01
Oligonucleotide = GCAGGAAGUAAAAACUAAUGGAAAUGCUUCGGAUAGUGGCAGGGGUGGGGGUUGCUAAGGAAAGGGUGGGAUGGGAGUGGGUAAAGAGUU; value = 1.03
Oligonucleotide = UCCUGUGCUACACAUCGUAUGUACCGAAUCGGGGUUUUUGGGGUUUUUUUGGGGAGGGGAAAGUAUUAUGUUACGCCGUUCGGAUCUGCA; value = 0.672
Oligonucleotide = UCAAGUCCUGUGCUACACAUCGUAUGUACCGAAUCGGGUUUGGUUUGGUUUGGGGAAAGUAUUAUGUUACGCCGUUCGGAUCUGCACUUC; value = -0.312
Oligonucleotide = UCAAGUCCUGUGCUACACAUCGUAUGUACCGAAUCGUGUGUGUGUGUGUGUGUGAAAGUAUUAUGUUACGCCGUUCGGAUCUGCACUUCC; value = -0.0194
Oligonucleotide = GCCCAUGCUAAAGUAAGAUUGUCUAACAAAGUUGAAGCCAUUGAUGUGGAAGAGGCCAAACGCCUCCAUCGGGAAGCUCUGAAGCAGUCU; value = -0.0869
Oligonucleotide = CUGUGCUACACAUCGUAUGUACCGAAUCGGGGAAAAAGGGGAAAAAAAGGGGAAAAAGGGGAAAGUAUUAUGUUACGCCGUUCGGAUCUG; value = 0.721
Oligonucleotide = CCUGUGCUACACAUCGUAUGUACCGAAUCGGGAAAAAGGGAAAAAAAGGGUUUUUUUGGGAAAGUAUUAUGUUACGCCGUUCGGAUCUGC; value = -0.112
Oligonucleotide = UGAAGACACAGCAUCCACCCGAUCUUCAUUCACUGUCCAAGACCUUAAACCUUUUACAGAAUAUGUGUUUAGGAUUCGCUGUAUGAAGGA; value = 0.0518
Oligonucleotide = CUCAAGUCCUGUGCUACACAUCGUAUGUACCGAAUCGGUGGGGUGGGGUGGGGAAAGUAUUAUGUUACGCCGUUCGGAUCUGCACUUCCA; value = 0.313
Oligonucleotide = CUGUGCUACACAUCGUAUGUACCGAAUCGGGGUUUUUUUGGGGUUUUUGGGGAAAAAGGGGAAAGUAUUAUGUUACGCCGUUCGGAUCUG; value = 0.802
Oligonucleotide = GCAGGAAGUAAAAUCAAAUGGAAAUGCUUCGGAUAGUGGCAGGGGUGGGGGUUGCUAAGGAAAGGGUGGGAUGGGAGUGGGUAAAGAGUU; value = 1.17

Series 5
Target: Interferon regulatory factor 5, full length, phosphomimetic (IRF5, Homo sapiens, UniProt Q13568-2, residues 1-514, S451D/S453D/S456D/S462D)
Technique: protein-binding microarray
Molecule type: double-stranded DNA, one strand shown
Medium: in vitro
Concentration: 940 nM top
Setting: 60-bp whole probe
With: salmon DNA 0.4 mg/ml
Reference: random background probes
Direction: higher = stronger binding
Endpoint: fitted relative affinity
Shared flanks, not repeated: GCCTAGCAC … GTCTTGATTCGCTTGACGCTGCTG
Oligonucleotide = TTAGGTTTCTGTTCCGGTTAGTGCTAG; value = 7.27 z-score
Oligonucleotide = TTCATTTACATTTCCAATACGTGCTAG; value = 1.32 z-score
Oligonucleotide = TTAGAACTTGGGTATCGATTAGTGCTA; value = 3.22 z-score
Oligonucleotide = TTAGGTCTCCTTCTCCATTAGTGCTAG; value = 0.565 z-score
Oligonucleotide = AGGAATCTTGAGTTAGAGACGTGCTAG; value = -0.316 z-score
Oligonucleotide = GACGAACTGAGTTCCGAGACGTGCTAG; value = -0.162 z-score
Oligonucleotide = ACCCATCTCCAGTAGCCTAGCGTGCTA; value = 0.715 z-score
Oligonucleotide = GACGCTTTCCTACTGCTGACGTGCTAG; value = 0.879 z-score
Oligonucleotide = CCTTTTATGGTATTTTTTTCGTGCTAG; value = 1.17 z-score
Oligonucleotide = GACGGTATCCTTTTCCTGTCGTGCTAG; value = 1.79 z-score
Oligonucleotide = CTTCCCCTCTAGGTTCTCTGAGTGCTA; value = 0.299 z-score
Oligonucleotide = TTAGGACTGGGTATAGGTTAGTGCTAG; value = -0.427 z-score
Oligonucleotide = GACGGTCTCCTACAGCTGACGTGCTAG; value = -0.0366 z-score
Oligonucleotide = TTAGGTCTCCTTCTCCTATAGTGCTAG; value = 0.759 z-score
Oligonucleotide = TTAGGACTGCTACTACTTTAGTGCTAG; value = -0.331 z-score
Oligonucleotide = GACGATTTTAGTCTCGAGACGTGCTAG; value = 2.23 z-score
Oligonucleotide = TCATTTTTCCTAATTGAACTGTGCTAG; value = 0.73 z-score
Oligonucleotide = GACGGTTTCGGGTTTCGCGACGTGCTA; value = 8.55 z-score
Oligonucleotide = ACTTTTTTTAATTGAGAAGCGTGCTAG; value = 0.5 z-score
Oligonucleotide = TCAGATTTCTCAAACAGACTGTGCTAG; value = 0.394 z-score

For quick reference, copied from above (series 3):
Oligonucleotide = CGCCACAA; value = -0.00524
Oligonucleotide = AGTACGTG; value = -0.277
Oligonucleotide = GCAGGCTA; value = 0.0119
Oligonucleotide = CATTCGCG; value = 0.0691
Oligonucleotide = AATTACTC; value = 0.0298
Oligonucleotide = ATAGCGGG; value = 0.0976
Oligonucleotide = CTCGTCAC; value = 0.142
Oligonucleotide = GCACTGGC; value = 0.115
